Measured values of several laboratories.
Protocols differ between the studies behind these lines. Numbers after ± are the reported error.

SMILES | cell line | test | system | setting | scale | quantity | value
CC(=O)N[C@H](C(=O)N[C@H](C(=O)N[C@@H](CCCNC(=N)N)C(=O)N1Cc2ccccc2C[C@H]1C(=O)N[C@@H](Cc1ccccc1)C(N)=O)C1CCCCC1)C(C)C | human PBMC | Bio-Plex multiplex, refers to: IL-17 | – | 500 µg/mL, 24 h | – | cytokine level | 4.3 ± 3.1 pg/mL
O=C(CCNC(=O)c1ccsc1)Nc1cccc(Oc2ccc(Cl)cc2)c1 | HepG2.2.15.7 | cell growth or viability | – | 48 h | – | CC50 | 43.4 µM
C=C1C(=O)C23CCC4C(C)(C)CCCC4(C)C2C(O)CC1C3 (single isomer, unassigned) | HL-7702 | MTT | – | concentration not given | relative to: A549 cells | cytotoxicity | decreased
CC(=O)Nc1ccc(C(=O)Nc2cc(-c3cccs3)ccc2N)cc1 | human bone marrow CFU-GM progenitors | – | – | 10 µM, 14 days | relative to: untreated control | colony formation | 0%
O=c1ccn(CCCCCOc2ccc(Br)cc2)c(=O)n1Cc1ccccc1 | HEL | cell growth or viability | – | – | – | CC50 | > 100 µM
O=C(N[C@@H](Cc1coc2ccccc12)B(O)O)[C@@H]1C[C@H]2CC[C@@H]1O2 | primary human cells | BioMAP Diversity PLUS | – | up to 1000 nM | – | cytotoxicity | not toxic
CC(=O)OC[C@H]1O[C@@H](Sc2sc(C(=O)c3ccc(Br)cc3)c(N)c2-c2nc3ccccc3s2)[C@H](OC(C)=O)[C@@H](OC(C)=O)[C@@H]1OC(C)=O | Huh7.5 | cytotoxicity | – | 72 h | – | maximum non-toxic concentration | 100 µg/mL
CCCCn1cc(C(=O)O)c(=O)c2cc(F)c(Nc3cc(OC)c(OC)c(OC)c3)c([N+](=O)[O-])c21 | MCF7 | cell growth, SRB | – | 72 h | – | IC50 | 39.1 ± 5.1 µg/mL
CC(=O)c1c(C)c2cnc(Nc3ccc(N4CCNCC4)cn3)nc2n(C2CCCC2)c1=O | recombinant mAb-expressing CHO cells | 24-deep-well plate production | production medium | 5 to 10 µM, 5 days, daily medium exchange | – | viability | > 80%
O=C(O)COc1cc2c(OCC(=O)O)cc1Cc1cc(OCC(=O)O)c(cc1OCC(=O)O)Cc1cc(OCC(=O)O)c(cc1OCC(=O)O)Cc1cc(OCC(=O)O)c(cc1OCC(=O)O)Cc1cc(OCC(=O)O)c(cc1OCC(=O)O)Cc1cc(OCC(=O)O)c(cc1OCC(=O)O)C2 | MC3T3-E1 | CCK-8 | – | 500 µM, 24 h | – | viability | > 90%
O=C(CC1CC=CCCCCC(=O)OC(c2ccccc2)CNC1=O)NCc1ccc(Cl)cc1 (centres unmarked) | Shh Light2 | CellTiter-Glo | – | – | cytotoxic above value | cytotoxic concentration | > 31 µM
COc1cc(O)c(-c2c(O)cc(OC)c3c2ccc2cc(O)ccc23)c2ccc3ccccc3c12 | BV-2 | cell growth or viability, MTT | – | 80 µM, 24 h | – | viability | 10.4%
CCCCn1cc(C(=O)O)c(=O)c2cc(F)c3c(nnn3-c3ccc(OC)cc3)c21 | A375-S2 | cell growth or viability, SRB | – | – | – | IC50 | 96.1 µM
CCOC(=O)c1cc(-c2nc3ccccc3s2)c(=O)n(NS(=O)(=O)c2ccccc2)c1N | Huh7.5 | trypan blue | – | 72 h | – | maximum non-toxic concentration | 100 µg/mL
CCOC(=O)[C@@H](C)NP(=O)(CO[C@H](CF)Cn1cnc(N)nc1=O)N[C@H](C)C(=O)OCC | HEL | cell morphology | – | – | – | minimum cytotoxic concentration | > 100 µM
O=c1c(-c2nc3ccccc3s2)cc2c(n1NS(=O)(=O)c1ccc(Cl)cc1)CCCCCC2 | Huh7.5 | trypan blue | – | 72 h | – | maximum non-toxic concentration | 130 µg/mL
CCCc1cc2cc(-n3nc(C)c4c3CC(C)(C)CC4=O)cc(N[C@H]3CCOC3)c2c(=O)[nH]1 | hiPSC-derived cardiomyocytes | – | – | 50 µM, 30 min, CtD50 | – | contraction duration | no effect
CN(C)c1cc(CNC2CCCC2)c(O)c2c1C[C@H]1C[C@H]3[C@H](N(C)C)C(O)=C(C(N)=O)C(=O)[C@@]3(O)C(O)=C1C2=O | COS | cytotoxicity, resazurin | – | 10% fetal calf serum | – | TC50 | > 100 µg/mL
Cc1[nH]c2ccccc2c1CCNC(=O)c1ccccc1F | SKOV | – | – | up to 80 µM | – | mitotic index | no effect
CN(C)c1cc(CN2CCCCC2)c(O)c2c1C[C@H]1C[C@H]3[C@H](N(C)C)C(O)=C(C(N)=O)C(=O)[C@@]3(O)C(O)=C1C2=O | COS | cytotoxicity, resazurin | – | 10% fetal calf serum | – | TC50 | > 100 µg/mL
COc1ccc(-c2coc3cc(O)cc(O)c3c2=O)cc1 | HEL fibroblasts (confluent, serum-starved) | tetrazolium dye | – | 72 h | – | CC50 | > 400 µM
CC(=O)O[C@H]1CC[C@]2(C)C3=C(CC[C@H]2C1(C)C)[C@@]1(C)CC[C@@H]([C@H](C)CCC=C(C)C)[C@]1(C)CC3 | MCF7 | cell growth or viability, SRB | – | 50 µM | – | inhibition | 20.1%

SMILES | cell line | test | system | setting | scale | quantity | value
CC(C)CNCc1cc(N(C)C)c2c(c1O)C(=O)C1=C(O)[C@]3(O)C(=O)C(C(N)=O)=C(O)[C@@H](N(C)C)[C@@H]3C[C@@H]1C2 | COS | cytotoxicity, resazurin | – | 10% fetal calf serum | – | TC50 | > 100 µg/mL
Cc1ccc2nc(-c3ccc4nc(-c5ccc(N(C)C(=O)c6ccc7ccccc7c6)cc5)sc4c3)sc2c1S(=O)(=O)O | Huh7.5 | – | – | 10 µM | – | viability | 98 ± 1%
CCCCCCCCCCCCCC(=O)Nc1ccccc1SSc1ccccc1NC(=O)CCCCCCCCCCCCC | HaCaT | cell growth or viability, MTT | – | 2.5 mg/mL, 24 h | – | viability | 100%
CC(C)=CCC[C@@H](C)[C@@H]1CC[C@]2(C)C3=C(CC[C@@]12C)[C@@]1(C)CC[C@H](OC(=O)c2ccccc2)C(C)(C)[C@@H]1CC3 | MCF7 | cell growth or viability, SRB | – | 50 µM | – | inhibition | 1.3%
CCCCn1cc(C(=O)O)c(=O)c2cc(F)c3c(nnn3-c3ccccc3OC)c21 | MCF7 | cell growth or viability, SRB | – | – | – | IC50 | 77.6 µM
COc1cc2c(CCNC(C)=O)c[nH]c2cc1OS(=O)(=O)O | parental MDCK-II cells | – | – | 8 µM, 4 h | – | efflux ratio | 0.96 ± 0.22
O=c1ccn(CCCCCOc2ccc(Br)cc2)c(=O)n1Cc1ccc2ccccc2c1 | HEL | cell morphology | – | – | – | minimum cytotoxic concentration | 20 µM
CC(C)=CCCC(C)C1CCC2(C)C3=C(CCC12C)C1(C)CCC(=O)C(C)(C)C1CC3 (centres unmarked) | MCF7 | cell growth or viability, SRB | – | 50 µM | – | inhibition | 1.5%
CCCCCCCCCCCCCCCC(=O)NCCCC[C@H](NC(=O)[C@H](CCCNC(=N)N)NC(=O)[C@H](CCCCNC(=O)CCCCCCCCCCCCCCC)NC(C)=O)C(=O)O | CCRF-CEM | flow cytometry | – | 50 µM, 2 h, 37 °C, serum-free medium, added: fluorescein-labelled lamivudine 5 µM | relative to: labelled lamivudine alone | cellular uptake | 7.1 fold
COc1cc2c(CCNC(C)=O)c[nH]c2cc1O | parental MDCK-II cells | – | – | 10 µM, 4 h, added: Ko143 1 µM | – | efflux ratio | 1.3 ± 0.22
CCC1(C)CCN(Cc2cc(N(C)C)c3c(c2O)C(=O)C2=C(O)[C@]4(O)C(=O)C(C(N)=O)=C(O)[C@@H](N(C)C)[C@@H]4C[C@@H]2C3)CC1 | COS | cytotoxicity, resazurin | – | 10% fetal calf serum | – | TC50 | > 100 µg/mL
CC(=O)O[C@@H]1[C@@H](OC(C)=O)[C@H](Sc2sc(C(=O)c3ccc(Br)cc3)c(N)c2-c2nc3ccccc3s2)OC[C@H]1OC(C)=O | Huh7.5 | cytotoxicity | – | 72 h | – | maximum non-toxic concentration | 100 µg/mL
N[C@@H](CCC(=O)N[C@@H](CCC(=O)N(O)c1ccc(Br)cc1)C(=O)NCC(=O)OC1CCCC1)C(=O)OC1CCCC1 | uninfected human erythrocytes | – | – | 200 µM, 48 h | – | hemolysis | > 40%
Cc1ccc(C(=O)c2sc(S)c(-c3nc4ccccc4s3)c2N)cc1 | Huh7.5 | cytotoxicity | – | 72 h | – | maximum non-toxic concentration | 90 µg/mL
COc1cc(O)cc2c1-c1ccc(O)c(OC)c1CC2 | BV-2 | cell growth or viability, MTT | – | 80 µM, 24 h | – | viability | 87.5%
Cc1ccc2nc(-c3ccc(N=NNc4ccc(-c5nc6ccc(C)c(S(=O)(=O)O)c6s5)cc4)cc3)sc2c1S(=O)(=O)O | Huh7.5 | cell growth or viability, ATP luminescence | – | 72 h | – | CC50 | > 100 µM
CC(=O)OC[C@H]1O[C@@H](Sc2sc(C(=O)c3ccc(C)cc3)c(N)c2-c2nc3ccccc3s2)[C@H](OC(C)=O)[C@@H](OC(C)=O)[C@H]1OC(C)=O | Huh7.5 | cytotoxicity | – | 72 h | – | maximum non-toxic concentration | 100 µg/mL
O=c1ccn(CCCCCOc2ccc(Br)cc2)c(=O)n1Cc1ccc2ccccc2c1Br | HEL | cell morphology | – | – | – | minimum cytotoxic concentration | 100 µM
CCCCCCCCCCCC(=O)Nc1ccccc1SSc1ccccc1NC(=O)CCCCCCCCCCC | HaCaT | cell growth or viability, MTT | – | 20 mg/mL, 24 h | – | viability | 100%
CC(=O)O[C@@H]1[C@@H](OC(C)=O)[C@H](Sc2sc(C(=O)c3ccc(C)cc3)c(N)c2-c2nc3ccccc3s2)OC[C@H]1OC(C)=O | Huh7.5 | cytotoxicity | – | 72 h | – | maximum non-toxic concentration | 90 µg/mL
CCCCCCCCCCCCCC(=O)NCCCC[C@H](NC(=O)[C@H](CCCNC(=N)N)NC(=O)[C@H](CCCCNC(=O)CCCCCCCCCCCCC)NC(C)=O)C(=O)O | CCRF-CEM | flow cytometry | – | 50 µM, 2 h, 37 °C, serum-free medium, added: fluorescein-labelled lamivudine 5 µM | relative to: labelled lamivudine alone | cellular uptake | 2.5 fold
Cc1nc([C@@H](NC(=O)c2ccc(-c3ccc(Cl)cc3)[nH]2)[C@H]2CCCCN2)sc1CO | U87.CD4.CXCR4 | cell growth or viability, XTT | – | – | – | CC50 | ~30 µM

Repeated from above:
SMILES | cell line | test | system | setting | scale | quantity | value
CC(=O)N[C@H](C(=O)N[C@H](C(=O)N[C@@H](CCCNC(=N)N)C(=O)N1Cc2ccccc2C[C@H]1C(=O)N[C@@H](Cc1ccccc1)C(N)=O)C1CCCCC1)C(C)C | human PBMC | Bio-Plex multiplex, refers to: IL-17 | – | 500 µg/mL, 24 h | – | cytokine level | 4.3 ± 3.1 pg/mL
Cc1nc([C@@H](NC(=O)c2ccc(-c3ccc(Cl)cc3)[nH]2)[C@H]2CCCCN2)sc1CO | U87.CD4.CXCR4 | cell growth or viability, XTT | – | – | – | CC50 | ~30 µM
O=c1ccn(CCCCCOc2ccc(Br)cc2)c(=O)n1Cc1ccc2ccccc2c1Br | HEL | cell morphology | – | – | – | minimum cytotoxic concentration | 100 µM
O=C(N[C@@H](Cc1coc2ccccc12)B(O)O)[C@@H]1C[C@H]2CC[C@@H]1O2 | primary human cells | BioMAP Diversity PLUS | – | up to 1000 nM | – | cytotoxicity | not toxic
CN(C)c1cc(CN2CCCCC2)c(O)c2c1C[C@H]1C[C@H]3[C@H](N(C)C)C(O)=C(C(N)=O)C(=O)[C@@]3(O)C(O)=C1C2=O | COS | cytotoxicity, resazurin | – | 10% fetal calf serum | – | TC50 | > 100 µg/mL
CCCCCCCCCCCCCC(=O)Nc1ccccc1SSc1ccccc1NC(=O)CCCCCCCCCCCCC | HaCaT | cell growth or viability, MTT | – | 2.5 mg/mL, 24 h | – | viability | 100%
